Published values gathered from unrelated publications.
Compare with care: the assays were run in different laboratories. Values joined by “and” are separate records of one study, mostly repeats; a detail may differ. Numbers after ± are the reported error.
U2AF2: U2AF2 148-342 (Homo sapiens, UniProt P26368)
UniProt P26368, sequence (whole entry, looked up): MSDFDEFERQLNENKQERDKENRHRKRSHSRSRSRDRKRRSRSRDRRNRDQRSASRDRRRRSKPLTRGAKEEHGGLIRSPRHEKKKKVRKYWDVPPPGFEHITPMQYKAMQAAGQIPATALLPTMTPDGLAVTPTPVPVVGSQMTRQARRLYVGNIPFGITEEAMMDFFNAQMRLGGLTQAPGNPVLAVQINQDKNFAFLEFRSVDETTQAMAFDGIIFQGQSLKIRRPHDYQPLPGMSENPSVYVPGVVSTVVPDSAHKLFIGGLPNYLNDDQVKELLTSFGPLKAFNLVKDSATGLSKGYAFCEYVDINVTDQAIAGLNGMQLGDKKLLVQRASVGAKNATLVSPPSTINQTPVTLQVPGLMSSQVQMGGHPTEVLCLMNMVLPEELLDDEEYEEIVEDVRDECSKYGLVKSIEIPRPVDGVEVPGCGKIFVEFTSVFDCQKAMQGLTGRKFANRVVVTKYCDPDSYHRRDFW
CDK5 with p25: Cyclin-dependent kinase 5, with p25 (CDK5, Homo sapiens, UniProt Q00535)
UniProt Q00535, sequence (whole entry, looked up): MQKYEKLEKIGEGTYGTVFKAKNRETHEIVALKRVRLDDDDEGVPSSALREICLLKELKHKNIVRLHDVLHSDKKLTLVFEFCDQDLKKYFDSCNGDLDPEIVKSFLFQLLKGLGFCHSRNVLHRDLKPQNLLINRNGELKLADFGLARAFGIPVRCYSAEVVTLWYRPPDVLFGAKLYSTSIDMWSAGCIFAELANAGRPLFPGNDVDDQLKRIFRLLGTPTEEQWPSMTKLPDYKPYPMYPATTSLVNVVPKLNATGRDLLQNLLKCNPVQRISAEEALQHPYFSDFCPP
B1: chain MSEILPYGEDKMGRFGADPEGSDLSFSCRLQDTNSFFAGNQAKRPPKLGQIGRAKRVVIEDDRIDDVLKGMGEKPPSGV
B2: human CAP1; sequence looked up; chain ADMQNLVERLERAVGRLEAVSHTSDMHRGYADSPSKAGAAPYVQAFDSLLAGPVAEYLKISKEIGGDVQKHAEMVHTGLKLERALLVTASQCQQPAENKLSDLLAPISEQIKEVITFREKNRGSKLFNHLSAVSESIQALGWVAMAPKPGPYVKEMNDAAMFYTNRVLKEYKDVDKKHVDWVKAYLSIWTELQAYIKEFHTTGLAWSKTGPVAKELSGLPSGPSAGSCPPPPPPCPPPPPVSTISCSYESASRSSLFAQINQGESITHALKHVSDDMKTHKNPALKAQSGPVRSGPKPFSAPKPQTSPSPKRATKKEPAVLELEGKKWRVENQENVSNLVIEDTELKQVAYIYKCVNTTLQIKGKINSITVDNCKKLGLVFDDVVGIVEIINSKDVKVQVMGKVPTISINKTDGCHAYLSKNSLDCEIVSAKSSEMNVLIPTEGGDFNEFPVPEQFKTLWNGQKLVTTVTEIAG
UniProt Q64663, sequence (whole entry, unmodified, looked up): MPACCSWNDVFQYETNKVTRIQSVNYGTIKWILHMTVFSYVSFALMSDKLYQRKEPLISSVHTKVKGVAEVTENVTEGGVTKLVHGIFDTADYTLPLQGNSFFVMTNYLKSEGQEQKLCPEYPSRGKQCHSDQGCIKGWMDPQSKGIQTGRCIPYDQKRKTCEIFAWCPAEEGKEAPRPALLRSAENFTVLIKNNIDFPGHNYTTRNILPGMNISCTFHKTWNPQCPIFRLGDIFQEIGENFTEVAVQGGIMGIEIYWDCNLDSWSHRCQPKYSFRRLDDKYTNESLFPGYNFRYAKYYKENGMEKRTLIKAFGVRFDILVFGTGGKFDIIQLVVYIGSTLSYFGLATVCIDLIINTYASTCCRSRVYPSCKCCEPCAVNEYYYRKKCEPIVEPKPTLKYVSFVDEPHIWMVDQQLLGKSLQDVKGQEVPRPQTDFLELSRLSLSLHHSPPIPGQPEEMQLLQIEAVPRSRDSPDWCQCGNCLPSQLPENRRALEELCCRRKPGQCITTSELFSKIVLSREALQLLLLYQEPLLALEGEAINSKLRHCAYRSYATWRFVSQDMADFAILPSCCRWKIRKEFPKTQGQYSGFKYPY
UniProt Q9UQM7, sequence (whole entry, unmodified, looked up): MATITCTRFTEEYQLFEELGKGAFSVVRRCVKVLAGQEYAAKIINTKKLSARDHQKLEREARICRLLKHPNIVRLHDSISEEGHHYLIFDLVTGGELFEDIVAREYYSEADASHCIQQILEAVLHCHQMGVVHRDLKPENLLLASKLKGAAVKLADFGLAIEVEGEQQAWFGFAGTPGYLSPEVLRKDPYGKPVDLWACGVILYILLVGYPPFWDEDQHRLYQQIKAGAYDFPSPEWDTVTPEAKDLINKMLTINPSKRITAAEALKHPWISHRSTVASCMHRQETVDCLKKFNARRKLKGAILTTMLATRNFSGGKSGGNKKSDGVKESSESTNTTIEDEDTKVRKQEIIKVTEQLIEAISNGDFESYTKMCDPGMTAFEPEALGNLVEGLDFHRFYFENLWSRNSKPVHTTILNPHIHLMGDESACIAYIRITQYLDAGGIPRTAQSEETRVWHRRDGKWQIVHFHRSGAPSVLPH
UniProt Q5ANA3, sequence (whole entry, looked up): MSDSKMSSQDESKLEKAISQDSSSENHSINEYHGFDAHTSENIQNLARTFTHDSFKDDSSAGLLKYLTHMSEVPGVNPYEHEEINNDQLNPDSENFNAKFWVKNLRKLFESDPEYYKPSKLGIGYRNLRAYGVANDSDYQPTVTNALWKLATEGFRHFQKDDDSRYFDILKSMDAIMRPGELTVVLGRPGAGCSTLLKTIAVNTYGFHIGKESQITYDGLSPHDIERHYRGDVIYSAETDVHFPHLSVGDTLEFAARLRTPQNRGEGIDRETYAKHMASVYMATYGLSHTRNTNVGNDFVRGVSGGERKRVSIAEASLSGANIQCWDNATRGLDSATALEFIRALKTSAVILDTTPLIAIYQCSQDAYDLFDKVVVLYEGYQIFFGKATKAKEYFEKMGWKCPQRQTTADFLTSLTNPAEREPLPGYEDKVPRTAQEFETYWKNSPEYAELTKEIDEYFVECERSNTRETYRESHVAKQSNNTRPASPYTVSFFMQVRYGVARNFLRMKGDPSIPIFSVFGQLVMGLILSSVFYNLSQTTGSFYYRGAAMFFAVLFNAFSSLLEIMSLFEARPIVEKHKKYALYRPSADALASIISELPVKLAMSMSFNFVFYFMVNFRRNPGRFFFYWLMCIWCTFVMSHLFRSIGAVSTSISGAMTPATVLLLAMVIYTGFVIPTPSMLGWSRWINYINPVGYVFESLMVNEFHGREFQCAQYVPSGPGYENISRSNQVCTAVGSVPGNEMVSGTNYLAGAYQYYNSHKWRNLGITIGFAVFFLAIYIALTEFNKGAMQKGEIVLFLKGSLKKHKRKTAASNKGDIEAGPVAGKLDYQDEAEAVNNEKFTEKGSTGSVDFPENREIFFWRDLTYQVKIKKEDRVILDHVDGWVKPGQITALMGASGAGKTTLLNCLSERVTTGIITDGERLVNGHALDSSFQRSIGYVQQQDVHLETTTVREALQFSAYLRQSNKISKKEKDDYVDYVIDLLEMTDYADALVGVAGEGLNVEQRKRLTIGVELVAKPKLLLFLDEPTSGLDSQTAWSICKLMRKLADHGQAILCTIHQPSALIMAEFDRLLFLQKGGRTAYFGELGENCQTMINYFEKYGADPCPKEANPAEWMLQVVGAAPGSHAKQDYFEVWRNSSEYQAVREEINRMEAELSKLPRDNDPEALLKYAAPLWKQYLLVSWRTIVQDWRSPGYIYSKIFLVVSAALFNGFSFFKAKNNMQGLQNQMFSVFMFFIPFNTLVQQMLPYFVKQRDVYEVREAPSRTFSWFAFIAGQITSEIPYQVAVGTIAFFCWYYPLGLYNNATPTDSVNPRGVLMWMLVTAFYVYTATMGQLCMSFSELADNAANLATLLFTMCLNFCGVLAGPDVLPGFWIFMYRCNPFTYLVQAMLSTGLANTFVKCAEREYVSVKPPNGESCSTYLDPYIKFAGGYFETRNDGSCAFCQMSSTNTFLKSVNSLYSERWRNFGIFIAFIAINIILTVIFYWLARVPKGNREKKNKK

Molecule	target or system	assay	system	setting	how to read	quantity	value
BzATP	P2X purinoceptor 7 (P2rx7, Rattus norvegicus, UniProt Q64663, I214A)	ion current, agonist, two-electrode voltage clamp	Xenopus oocytes	100 µM		normalized current	0.971 and 1 and 0.921
human ME2 T76N		enzyme activity, NADH absorbance		with fumarate 3 mM, added: L-malate varied		Hill coefficient	1.08 ± 0.03
CUCUUAAGU (ssRNA)	U2AF2	sequencing of bound RNA	RNA	motif only		Kd	6.26 µM
B1	CAMK2A (Homo sapiens, UniProt Q9UQM7, D135N)	binding, ITC		D135N kinase domain		-TΔS	-1.84 kcal/mol
milbemycin oxime	CDR1 (Candida albicans, UniProt Q5ANA3)	binding, microscale thermophoresis		9.77 nM		fraction bound	16.9%
KEAFWDRCLSVINLMSSKMLEINA	CDK5 with p25	phosphotransferase activity, radiometric	peptide	concentration not given, 10% DMSO, added: histone substrate	reference: p5-WT peptide	activity change	60%
B2 (human CAP1)	PP6C (human)	co-immunoprecipitation, IP-MS	CYB5R4 knockout cells	concentration not given	reference: CYB5R4 knockout over parental	log2 fold change	0.2
CUAUUAGAA (ssRNA)	U2AF2	sequencing of bound RNA	RNA	motif only		Kd	6.44 µM
KDAFWDRCLSVINLMSSKMLQINA	CDK5 with p25	phosphotransferase activity, radiometric	peptide	concentration not given, 10% DMSO, added: histone substrate	reference: p5-WT peptide	activity change	20%
11-deoxycorticosterone	CYP11B2 (human)	substrate binding, stopped-flow global kinetic fitting	purified enzyme	3-state conformational selection model, added: 40-fold excess adrenodoxin		rate constant k-1	2.09 ± 0.121 s⁻¹
human ME2 K74H		enzyme activity, NADH absorbance		with fumarate 3 mM, added: L-malate varied		Hill coefficient	1.25 ± 0.06
KEAFWDRCLSVINLMSSKMLNINA	CDK5 with p25	phosphotransferase activity, radiometric	peptide	concentration not given, 10% DMSO, added: histone substrate	reference: p5-WT peptide	activity change	79%
human ME2 P78D		enzyme activity, NADH absorbance		without fumarate, added: L-malate varied		Hill coefficient	1.53 ± 0.06
KEAFWDRCLSVINLMSSKMLQINM	CDK5 with p25	phosphotransferase activity, radiometric	peptide	concentration not given, 10% DMSO, added: histone substrate	reference: p5-WT peptide	activity change	-26%
PTBP1 (human)	CYB5R4 knockout human cells	PP6 interaction, 3xFLAG-PP6C IP-MS		concentration not given	reference: CYB5R4 KO over parental	log2 fold change	-0.37
human ME2 A65V mutant		enzyme activity, activator, NADH absorbance	recombinant enzyme	range over 0 to 5 mM, pH 7.4	reference: wild type	activation fold	0.7

Repeated from above:
Molecule	target or system	assay	system	setting	how to read	quantity	value
human ME2 P78D		enzyme activity, NADH absorbance		without fumarate, added: L-malate varied		Hill coefficient	1.53 ± 0.06
